Assay results from different studies.
Values after ≈ are worked out from the molar mass of the structure shown.

SMILES | tested on | assay | system | conditions | scale | endpoint | value
COC1CN([C@H]2CC[C@H]([C@@]3(C)Oc4c(Cl)cc(C(=O)NCc5c(SC)cc(C)[nH]c5=O)c(C)c4O3)CC2)C1 |  | RNA-seq, measured: PCP4L1 | human, whole blood | dose not given, 24 h | reference: pretreatment baseline | log2 fold change | 1.17
Cc1ncsc1-c1ccc(C(C)NC(=O)C2CC(O)CN2C(=O)C(NC(=O)CCCCCCCCCCN2CCCC(Nc3ncc(Cl)c(Nc4ccccc4S(=O)(=O)C(C)C)n3)C2)C(C)(C)C)cc1 (stereo not drawn) | 22Rv1 | RNA-seq, measured: SCAND2P mRNA |  | concentration not given | reference: DMSO | log2 fold change | -1.05
C=CC(=O)N1[C@@H](c2ccc3c(c2)OCO3)c2[nH]c3ccccc3c2C[C@H]1C(=O)N1CCN(C)CC1 | human cyclin E1 wild type-3xFLAG:CDK2 | co-IP with TMT proteomics, measured: NPM1 |  | concentration not given, P06748 | reference: wild type DMSO | relative co-enrichment | 93%
CCN(CC)CC(=O)Nc1cccc(-n2cc(-c3ccc4ccc(-c5cn(-c6cccc(NC(=O)CN(CC)CC)c6)nn5)cc4c3)nn2)c1 | RCC4 | PCR angiogenesis array, measured: IGF1 |  | 5 x IC50, 6 h, normoxia | reference: untreated | fold regulation | 3.4
CN1CCCNC(=O)c2cccc(c2)C(=O)NCCCN(C)CCCNc2cccc3c2C(=O)c2cccc(c2C3=O)NCCC1 | SAS | RNA-Seq, measured: LINC00862 mRNA |  | 1 µM, 6 h | reference: untreated cells | log2 fold change | 2.95
CNS(=O)(=O)Nc1nccc(Cc2c(C)c3ccc(Oc4ncccc4F)cc3oc2=O)c1F | HMC-1.2 | cell viability, CellTiter-Glo |  | 7 days |  | IC50 | 24.2 nM
C=C(NC(=O)c1csc(-c2nc3c(cc2O)-c2nc(cs2)C(=O)NC(C(C)O)C(=O)NC(=C(C)OC)c2nc(cs2)C(=O)NC2c4nc(cs4)C(=O)NC(COC(=O)c4c5c6c(cccc6n4O)COC(=O)C(OC4CC(C)(O)C(N(C)C)C(C)O4)C2OC5)c2nc-3cs2)n1)C(N)=O (stereo not drawn) | Staphylococcus epidermidis | microbial growth |  | clinical isolate |  | MIC50 | 7.8 ng/mL (≈ 5.43 nM)
Nc1ncc(-c2cc(-c3cnn(CC(F)(F)F)c3)ncc2F)nc1C(=O)NC1CNCC(F)C1 (stereo not drawn) | ROS1 | KINOMEscan |  | 1 µM | reference: DMSO control | remaining binding | 26%
C=CC(=O)Nc1cccc(Cn2ncc3cnc(Nc4cnn(CCOC)c4)nc32)c1 | LCK human | binding, KINOMEscan |  | 100 nM | lower = stronger binding | percent of control | 95%
